# Measurements pooled from the literature.
# Compare with care: the assays were run in different laboratories. Several values in a cell are separate wells, animals, samples, runs or records. ± gives the spread as reported.
Compound,tested on,test,test system,setting,scale,measurement,value
CC1=C(Cc2cn(CCO)nn2)C(=O)c2ccccc2C1=O,Schistosoma mansoni,viability,adult worms,72 h,,IC50,7300 nM
CC(C)n1ncc2c(C(=O)NCC3(C)CNC3)cc(C3CC3)nc21,Enterovirus D68,viral replication,"RD, recombinant wild-type US/MO/14-18947",0.001 µM,reference: untreated,plaque area,94.1% and 106%
CC1=C(Cc2cn(CCN3CCOCC3)nn2)C(=O)c2ccccc2C1=O,Schistosoma mansoni,,adult worms,"25 µM, 72 h",,killing,49%
CN(C)c1ccc(O)c2c1C[C@H]1C[C@H]3[C@H](N(C)C)C(O)=C(C(N)=O)C(=O)[C@@]3(O)C(O)=C1C2=O,Brugia malayi,,SCID mouse,"dose not given, 6 weeks post-treatment, dosing x28d",,maximum adult worm burden,4 worms per mouse
CN1CCN(c2ccc(-c3ccc4c(Nc5cnccn5)cnnc4c3)cc2)CC1,Schistosoma mansoni,,adult worms,"10 µM, 1 h",direction not given,phenotypic severity score,0
COc1cc2c(cc1OC)[C@@H]1C(=O)c3ccc4c(c3O[C@@H]1CO2)C=CC(C)(C)O4,human adenovirus C5 wild type,Western blot,A549,"2 µM, 48 h post-infection",,"viral protein levels (E1A, DBP, structural proteins)",decreased
Cn1cc(-c2ccc(-c3cncc(Cl)c3N3CCC4(CCNC4=O)CC3)cc2)cn1,COLO 205,"gene expression, microarray, item: TUBD1 mRNA",,"concentration not given, 2 h",reference: untreated cells,log2 fold change,-2.03
CCn1cc(-c2cc(Cn3ccoc3=N)cc3c2CCN([C@@H](C)c2cc(OC)ccn2)C3=O)c(C(F)(F)F)n1,HEC151,cell growth,,120 h,,EC50,107 nM
COc1ccc(Nc2cnnc3cc(-c4cnc(N5CCN(C)CC5)nc4)ccc23)cc1Cl,Schistosoma mansoni,,adult worms,"10 µM, 48 h",direction not given,phenotypic severity score,1
N=C(N)c1ccc(OCc2cccc(COc3ccc(C(=N)N)cc3)c2)cc1,Escherichia coli,,BW25113,"concentration not given, lowest-FICI combination, added: erythromycin",,MIC in combination,25 µg/mL
Nc1nc(-c2ccccc2)nc2[nH]nc(Nc3ccc(C(F)(F)F)cc3)c12,coxsackievirus B3,,"31-1-93, NMRI mice, CVB3 chronic myocarditis","oral, 100 mg/kg twice daily, day 11, dosed days 1 to 7, score scale 0 to 7",direction not given,clinical score,0.22
C[C@H]1c2cccc(O)c2C(=O)C2=C(O)[C@]3(O)C(=O)C(C(N)=O)=C(O)[C@@H](N(C)C)[C@@H]3[C@@H](O)[C@@H]21,Brugia malayi,,"SCID mouse, peritoneal cavity","dose not given, 6 weeks post-treatment, dosing x42d",,maximum microfilaria count,733 microfilariae per mouse
CC1=C(Cn2cc(CN)nn2)C(=O)c2ccccc2C1=O,Schistosoma mansoni,,adult worms,"25 µM, 72 h",,killing,52.8%
CC(=O)N1CCC(C(=O)N2CCN3C(=O)c4cc(-c5ccccc5)ccc4NC(=O)C3C2)CC1 (stereo not drawn),Caenorhabditis elegans,,N2,12.5 µM,,mean lifespan,19.5 days
O=[N+]([O-])c1cc(F)c(-c2c(Cl)nc(-c3cccs3)nc2NCC2CCC2)c(F)c1,Schistosoma mansoni,worm motility,adult worms ex vivo,24 h,,EC50,< 300 nM
CC1=C(Cc2cn(CCN3CCC(F)(F)CC3)nn2)C(=O)c2ccccc2C1=O,Schistosoma mansoni,,adult worms,"10 µM, 48 h",,killing,41.6%
CN[C@H](CC(C)C)C(=O)N[C@H]1C(=O)N[C@@H](CC(N)=O)C(=O)N[C@H]2C(=O)N[C@H]3C(=O)N[C@H](C(=O)N[C@H](C(=O)O)c4cc(O)cc(O)c4-c4cc3ccc4O)[C@H](O)c3ccc(c(Cl)c3)Oc3cc2cc(c3O[C@@H]2O[C@H](CO)[C@@H](O)[C@H](O)[C@H]2O[C@H]2C[C@](C)(N)[C@H](O)[C@H](C)O2)Oc2ccc(cc2Cl)[C@H]1O,Staphylococcus aureus,broth microdilution,methicillin-resistant isolates,,,MIC50,1 µg/mL
COc1ccc(Nc2cnnc3ccc(-c4ccc(S(=O)(=O)N5CCN(C)CC5)cc4)cc23)cc1,Schistosoma mansoni,,adult worms,"10 µM, 5 h",direction not given,phenotypic severity score,0
C[C@@H](CO)CCC[C@@H](C)[C@H]1CC[C@H]2[C@@H]3CC=C4C[C@@H](O)CC[C@]4(C)[C@H]3CC[C@]12C,Human rotavirus,,"MA104, Wa",,,EC50,260 nM
Cc1ccc(Nc2cnnc3ccc(-c4ccc(S(=O)(=O)N5CCN(C)CC5)cc4)cc23)cn1,Schistosoma mansoni,,adult worms,"10 µM, 48 h",direction not given,phenotypic severity score,2
CC1=C(Cn2cc(CN3CCOCC3)nn2)C(=O)c2ccccc2C1=O,Schistosoma mansoni,,adult worms,"10 µM, 24 h",,killing,29.6%
CCC(C)(C)C(=O)O[C@H]1C[C@@H](C)C=C2C=C[C@H](C)[C@H](CC[C@@H]3C[C@@H](O)CC(=O)O3)[C@H]21.[Ca],Nedd8-cullin1 interaction,"neddylation, AlphaScreen",,100 µM,,inhibition,-14.3%
COC(=O)[C@H](Cc1c[nH]c2ccccc12)NCc1cc2ccccc2nc1SC,Pseudomonas aeruginosa,,,"64 µg/mL, added: pentamidine 100 µM",reference: control,growth,58.2%
CCON=C1C=CC(=C(C#N)c2ccccc2)C=C1,Kluyveromyces marxianus,broth dilution,ATCC 204093,"48 h, 37 °C",,MFC,256 µg/mL
C=C1[C@H](CO)[C@@H](O)C[C@@H]1n1cnc2c(=O)[nH]c(N)nc21,Hepatitis B virus,item: HBV pgRNA,chronic HBV non-responders,0.5 mg/day,reference: baseline,change in serum pgRNA,< 0.5 log10 copies/mL
N=C(N)c1ccc(OCc2ccccc2COc2ccc(C(=N)N)cc2)cc1,Escherichia coli,checkerboard,mcr-2 polymyxin-resistant,"concentration not given, 20 h, added: rifampicin",,MIC of compound in combination,25 µg/mL
CC(=Nc1ccc(N=Cc2cnccn2)cc1)N(C)C,Necator americanus,,"infected hamsters, small intestine","oral, 50 mg/kg single, 2 h",,worm count,10.5 ± 1.8
CC1=C(Cc2cn(CCN3CCN(C(=O)OC(C)(C)C)CC3)nn2)C(=O)c2ccccc2C1=O,Schistosoma mansoni,,adult worms,"10 µM, 72 h",,killing,44.4%
CO[C@H]1/C=C/O[C@@]2(C)Oc3c(C)c(O)c4c(c3C2=O)C2=NC3(CCN(CC(C)C)CC3)NC2=C(NC(=O)/C(C)=C\C=C\[C@H](C)[C@H](O)[C@@H](C)[C@@H](O)[C@@H](C)[C@H](OC(C)=O)[C@@H]1C)C4=O,Mycobacteroides abscessus,"intracellular growth, visual read","THP-1 derived macrophages, ATCC 19977",,,IC90,2950 nM
C[C@H](CCCC(C)(C)O)[C@H]1CC[C@H]2[C@@H]3CC=C4C[C@@H](O)CC[C@]4(C)[C@H]3CC[C@]12C,Human rotavirus,,"MA104, Wa",,,EC50,160 nM
CNC(C)C1CCC(N)C(OC2C(N)CC(N)C(OC3OCC(C)(O)C(NC)C3O)C2O)O1 (stereo not drawn),Pseudomonas aeruginosa,,clinical isolate RKI-No_584/15,,,MIC,8 µg/mL
N#CC(=C1C=CC(=NOC(=O)OCc2ccccc2)C=C1)c1ccccc1,Kluyveromyces marxianus,broth dilution,ATCC 204093,"48 h, 37 °C",,MFC,64 µg/mL
CN1CCN(c2ncc(-c3ccc4c(Nc5ncccn5)cnnc4c3)cn2)CC1,Schistosoma mansoni,,adult worms,"10 µM, 24 h",direction not given,phenotypic severity score,0
Fc1cccc(N/N=C/c2ccc(-c3cccc(/C=N/Nc4cccc(F)c4)c3)cc2)c1,Aspergillus terreus,,ATCC MYA-3633,,reference: mammalian CC50 over MIC,selectivity ratio,< 0.4
COc1ccc(Nc2cnnc3cc(-c4ccc(S(=O)(=O)N5CCN(C)CC5)cc4)ccc23)cc1,Schistosoma mansoni,,adult worms,"10 µM, 1 h",direction not given,phenotypic severity score,0
C#CCON=C1C=CC(=C(C#N)c2ccccc2)C=C1,Kluyveromyces marxianus,broth dilution,ATCC 204093,"48 h, 37 °C",,MFC,16 µg/mL
OC(Cn1cncn1)(Cn1cncn1)c1ccc(F)cc1F,Candida albicans,,ATCC 60193,"4 × MIC, 12 h",,viable cell reduction,65 to 70%
COc1ccc(Nc2cnnc3ccc(-c4cnc(N5CCCN(C)CC5)nc4)cc23)cc1,Schistosoma mansoni,,adult worms,"10 µM, 24 h",direction not given,phenotypic severity score,1
Cc1cc(OC(C)C)ccc1C(=O)C(C)(C)NC(=O)c1sccc1C,Botrytis cinerea,mycelial growth,B05.10,0.003 µg/mL,,inhibition,29.2 ± 19.9%
COc1cnc2cccc(N3CCc4c(cc(Cn5ccnc5C)cc4-c4cn(C)nc4C(F)(F)F)C3=O)c2c1,JeKo-1,"cell growth, inhibitor",,120 h,,EC50,1170 nM
COC(=O)[C@H](Cc1c[nH]c2ccccc12)NCc1cc2ccccc2nc1OC,Pseudomonas aeruginosa,,,"64 µg/mL, added: pentamidine 100 µM",reference: control,growth,38.2%
CC1=C(Cn2cc(CN3CCSC3)nn2)C(=O)c2ccccc2C1=O,Schistosoma mansoni,,adult worms,"25 µM, 24 h",,killing,43.5%
CN1CCN(c2ncc(-c3ccc4nncc(Nc5cnccn5)c4c3)cn2)CC1,Schistosoma mansoni,,adult worms,"10 µM, 1 h",direction not given,phenotypic severity score,0
CC1=C(Cn2cc([Si](C)(C)C)nn2)C(=O)c2ccccc2C1=O,Schistosoma mansoni,,adult worms,"25 µM, 48 h",,killing,51%
N=C(N)c1ccc(OCc2ccc(-c3ccccc3)cc2COc2ccc(C(=N)N)cc2)cc1,Escherichia coli,checkerboard,BW25113,"synergy at FICI ≤0.5, unit not given, added: novobiocin",lower = stronger synergy,FICI,≤ 0.031
Fc1cc(F)c(-c2c(Cl)nc(-c3cccs3)nc2NC2CCC2)c(F)c1,Schistosoma mansoni,worm motility,adult worms ex vivo,24 h,,EC50,550 nM
COC(=O)[C@H](Cc1ccc(O)cc1)NCc1cc2ccccc2nc1SC,Pseudomonas aeruginosa,,,"2 µg/mL, added: pentamidine 50 µM",reference: control,growth,100%
CC(=O)NC[C@H]1CN(c2ccc(N3CCOCC3)c(F)c2)C(=O)O1,Streptococcus pneumoniae,,"penicillin-resistant, 10 isolates",pH 7.0,,MIC50,1 µg/mL
CC(C)C[C@H](NC(=O)[C@H](CCc1ccccc1)NC(=O)CN1CCOCC1)C(=O)N[C@@H](Cc1ccccc1)C(=O)N[C@@H](CC(C)C)C(=O)[C@@]1(C)CO1,Babesia microti,,"BALB/c mouse, infected","intraperitoneal, 0.75 mg/kg on days 5 and 6 post-infection, 6 days post-infection",,parasitemia,42% and 53.9% and 45% and 45.1%
C(=N\Nc1ccccc1)/c1ccc(-c2ccc(/C=N/Nc3ccccc3)cc2)cc1,Candida albicans,,ATCC MYA-1237 resistant,,reference: mammalian CC50 over MIC,selectivity index,< 0.6
N#Cc1cc(F)c(-c2c(Cl)nc(-c3cccs3)nc2NCC2CCC2)c(F)c1,Schistosoma mansoni,worm motility,adult worms ex vivo,24 h,,EC50,< 300 nM

# Excerpt of the above:
Compound,tested on,test,test system,setting,scale,measurement,value
C[C@H]1c2cccc(O)c2C(=O)C2=C(O)[C@]3(O)C(=O)C(C(N)=O)=C(O)[C@@H](N(C)C)[C@@H]3[C@@H](O)[C@@H]21,Brugia malayi,,"SCID mouse, peritoneal cavity","dose not given, 6 weeks post-treatment, dosing x42d",,maximum microfilaria count,733 microfilariae per mouse
COc1ccc(Nc2cnnc3ccc(-c4ccc(S(=O)(=O)N5CCN(C)CC5)cc4)cc23)cc1,Schistosoma mansoni,,adult worms,"10 µM, 5 h",direction not given,phenotypic severity score,0
CC1=C(Cc2cn(CCN3CCC(F)(F)CC3)nn2)C(=O)c2ccccc2C1=O,Schistosoma mansoni,,adult worms,"10 µM, 48 h",,killing,41.6%
C[C@@H](CO)CCC[C@@H](C)[C@H]1CC[C@H]2[C@@H]3CC=C4C[C@@H](O)CC[C@]4(C)[C@H]3CC[C@]12C,Human rotavirus,,"MA104, Wa",,,EC50,260 nM
